# Measured values of several laboratories.
# ± gives the spread as reported.
# Chain of UniProt P08183 (whole entry, looked up): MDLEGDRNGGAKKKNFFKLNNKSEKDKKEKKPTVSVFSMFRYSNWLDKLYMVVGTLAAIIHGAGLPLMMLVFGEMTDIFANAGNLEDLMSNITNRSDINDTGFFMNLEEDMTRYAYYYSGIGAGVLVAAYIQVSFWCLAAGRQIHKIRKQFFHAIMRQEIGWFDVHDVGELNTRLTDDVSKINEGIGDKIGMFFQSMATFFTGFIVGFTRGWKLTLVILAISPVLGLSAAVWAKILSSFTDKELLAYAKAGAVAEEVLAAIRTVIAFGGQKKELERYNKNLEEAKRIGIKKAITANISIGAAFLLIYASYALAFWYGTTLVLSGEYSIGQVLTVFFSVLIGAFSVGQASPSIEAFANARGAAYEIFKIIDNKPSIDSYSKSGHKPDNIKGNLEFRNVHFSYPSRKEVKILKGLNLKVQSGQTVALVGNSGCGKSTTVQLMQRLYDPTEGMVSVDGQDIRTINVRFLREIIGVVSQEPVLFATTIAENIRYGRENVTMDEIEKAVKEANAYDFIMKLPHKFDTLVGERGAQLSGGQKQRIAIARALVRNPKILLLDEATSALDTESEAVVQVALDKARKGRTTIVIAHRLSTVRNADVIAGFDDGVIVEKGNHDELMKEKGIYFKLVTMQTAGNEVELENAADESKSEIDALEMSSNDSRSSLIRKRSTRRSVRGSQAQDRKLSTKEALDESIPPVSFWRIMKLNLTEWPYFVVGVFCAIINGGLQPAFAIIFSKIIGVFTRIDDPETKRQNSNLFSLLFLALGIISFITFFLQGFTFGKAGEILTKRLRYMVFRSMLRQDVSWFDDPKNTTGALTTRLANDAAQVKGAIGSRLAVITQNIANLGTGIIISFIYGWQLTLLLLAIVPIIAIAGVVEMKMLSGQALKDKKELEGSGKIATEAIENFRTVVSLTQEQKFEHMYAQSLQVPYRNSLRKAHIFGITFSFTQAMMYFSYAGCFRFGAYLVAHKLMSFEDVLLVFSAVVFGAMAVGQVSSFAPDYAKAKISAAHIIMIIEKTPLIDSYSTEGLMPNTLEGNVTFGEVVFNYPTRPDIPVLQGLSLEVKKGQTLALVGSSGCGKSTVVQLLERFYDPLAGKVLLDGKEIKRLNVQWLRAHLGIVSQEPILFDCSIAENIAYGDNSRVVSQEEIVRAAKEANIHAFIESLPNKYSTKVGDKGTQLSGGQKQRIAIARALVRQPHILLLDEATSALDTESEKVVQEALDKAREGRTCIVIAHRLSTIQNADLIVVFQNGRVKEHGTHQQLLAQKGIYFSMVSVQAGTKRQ
Structure (SMILES),tested on,test,system,setting,how to read,measurement,value
CC(C(=O)Nc1ccc(C2CCCCC2)cc1)n1cncn1 (stereo not drawn),,,rat liver microsomes,1 µM,,hepatic clearance,41 mL/min/kg
NC(=O)C1CCN(C(=O)c2ccc(NCc3cnc4nc(N)nc(N)c4n3)cc2)CC1,THP-1-derived macrophages,MTT,,,,CC50,> 100 µM
Clc1ccc(Nc2ncnc3ccc(-c4cccc(N5CCOCC5)c4)cc23)cc1,Trypanosoma brucei,,HepG2,48 h,reference: HepG2 CC50 over T. brucei GI50,selectivity index,170
CCN1/C(=C/C(C)=O)Sc2ccc(F)cc21,,,cynomolgus monkey,"oral, 30 mg/kg, 1 h post-dose",reference: pre-dose,mean blood pressure change,96.9 ± 5.6%
N#Cc1ccc2c(c1)[C@H]1CCCN(C(=O)c3ccc4[nH]cnc4c3)[C@H]1C2,,,human males,"160 mg, day 15",,total testosterone level,14.5 nmol/L
CC(C)(C(=O)N1CCOc2c(C#N)cncc2C1)C(F)F,,item: gingival bleeding,"human, both sexes","oral, 20 mg twice daily, 14 days, multiple ascending dose",,subjects with TEAE,0%
O=C(Nc1ccc(C2CCCCC2)cc1)c1cn[nH]c1,,,cynomolgus liver microsomes,1 µM,,hepatic clearance,29 mL/min/kg
O=C(CNc1nc(NS(=O)(=O)c2ccccc2)ncc1-c1nc2ccccc2s1)c1ccc(Br)cc1,FRhK-4,cytotoxicity,,72 h,,maximum non-toxic concentration,120 µg/mL
O=C(NCc1cc[nH]n1)c1ccc([C@H]2[C@@H](F)[C@@H](F)C[C@@H](F)[C@H]2F)cc1,,liver microsome stability,dog liver microsomes,1 µM,,hepatic clearance,9.4 mL/min/kg
CC[C@H]1[C@@H](O)[C@@H]2[C@H](CC[C@]3(C)[C@@H]([C@H](C)CCNC(=O)NS(=O)(=O)c4ccc(C(C)(C)C)cc4)CC[C@@H]23)[C@@]2(C)CC[C@@H](O)C[C@@H]12,"ATP-dependent translocase ABCB1 (ABCB1, Homo sapiens, UniProt P08183)",substrate,"human, plasma","dose not given, alone",,CL/F mean,15.1 L/h
O=C(Cn1ccnc1)Nc1ccc(C2CCCCC2)cc1,,,human liver microsomes,"1 µM, without NADPH",,hepatic clearance,3.9 mL/min/kg
Nc1nc(N)c2nc(CNc3ccc(C(=O)c4ccccc4)cc3)cnc2n1,THP-1-derived macrophages,MTT,,,,CC50,12.5 to 25 µM
CN1CCN(c2cccc(-c3ccc4ncnc(Nc5ccc(Cl)c(Cl)c5)c4c3)c2)CC1,Trypanosoma brucei,,HepG2,48 h,reference: HepG2 CC50 over T. brucei GI50,selectivity index,50
NC(=O)C1CCN(C(=O)Cc2ccc(N(CCCO)Cc3cnc4nc(N)nc(N)c4n3)cc2)CC1,THP-1-derived macrophages,MTT,,,,CC50,> 100 µM
CCOc1c([C@H](C)n2nc(C)c3c(N)ncnc32)cc(Cl)c(F)c1[C@@H]1CNC(=O)C1,,linear mixed-effects model,"human B-cell malignancy patients, plasma",oral,,concentration-ΔQTcF slope,0.00176 ms/nM
Cc1cc(Nc2ccc(S(F)(F)(F)(F)F)cc2)n2nc(C(C)(F)F)nc2n1,Plasmodium falciparum,LC-MS/MS,"malaria patients, plasma","oral, 250 mg",,terminal half-life,86.9 h
NC(=O)CCNC(=O)c1ccc([C@H]2[C@@H](F)[C@@H](F)C[C@@H](F)[C@H]2F)cc1,,liver microsome stability,rat liver microsomes,1 µM,,hepatic clearance,6.1 mL/min/kg
Cc1cc(C(=O)NC(C)(C)COc2cccc3c2C(N)=NS(=O)(=O)N3)cc(C)n1,human peripheral blood lymphocytes,in vitro micronucleus test,,"500 µg/mL, 4 h, with rat liver S9 activation, DMSO 0.4%",,micronucleated binucleated cells,0.3%
c1cc(-c2ccc3ncnc(NC4CCOCC4)c3c2)cc(N2CCOCC2)c1,Trypanosoma brucei,,HepG2,48 h,reference: HepG2 CC50 over T. brucei GI50,selectivity index,8.6
Cc1cc(N)c2c(OCC(C)(C)C(=O)NC(C)C)cccc2n1,Salmonella typhimurium,"reverse mutation, plate incorporation",TA100,"50 µg/plate, with rat liver S9",,mean revertant colonies,107 colonies/plate
Clc1ccc(Nc2ncnc3ccc(-c4cccc(N5CCOCC5)c4)cc23)cc1Cl,Trypanosoma brucei,,HepG2,48 h,reference: HepG2 CC50 over T. brucei GI50,selectivity index,> 980
O=C(Nc1nc2cccc(-c3ccc(CN4CCS(=O)(=O)CC4)cc3)n2n1)C1CC1,,item: pharyngitis,human rheumatoid arthritis patients,"oral, 75 mg once daily, 4 weeks, regardless of relatedness",,treatment-emergent adverse events,0%
COC(=O)C1CCN(C(=O)c2ccc(N(Cc3ccccc3)Cc3cnc4nc(N)nc(N)c4n3)cc2)CC1,THP-1-derived macrophages,MTT,,,,CC50,12.5 to 25 µM
O=C(Nc1ccc(C2CCCCC2)cc1)[C@H]1CC1(F)F,,liver microsome stability,rat liver microsomes,1 µM,,hepatic clearance,51 mL/min/kg
CC[C@H](CO)N(CCN(N=O)[C@H](CC)CO)N=O,Salmonella typhimurium,"mutagenicity, Ames plate incorporation",TA1537,"2500 µg/plate, without S9, methanol",,revertant colonies per plate,12 ± 2
Cc1ccc(Nc2ncnc3ccc(-c4cccc(N5CCOCC5)c4)cc23)cc1,Trypanosoma brucei,,HepG2,48 h,reference: HepG2 CC50 over T. brucei GI50,selectivity index,41
COCCC(=O)Nc1ccc(C2CCCCC2)cc1,,hepatocyte stability,cryopreserved human hepatocytes,1 µM,,hepatic clearance,19 mL/min/kg
COC(=O)C1CCN(C(=O)c2ccc(N(CCCO)Cc3cnc4nc(N)nc(N)c4n3)cc2)CC1,THP-1-derived macrophages,MTT,,,,CC50,> 100 µM
CC(C(=O)Nc1ccc([C@H]2[C@@H](F)[C@@H](F)C[C@@H](F)[C@H]2F)cc1)n1cncn1 (stereo partly drawn),,,human liver microsomes,"1 µM, without NADPH",,hepatic clearance,3.9 mL/min/kg
Cc1ccc(S(=O)(=O)Nc2ncc(-c3nc4ccccc4s3)c(N)n2)cc1,FRhK-4,cytotoxicity,,72 h,,maximum non-toxic concentration,110 µg/mL

# For quick reference, copied from above:
Structure (SMILES),tested on,test,system,setting,how to read,measurement,value
O=C(Nc1nc2cccc(-c3ccc(CN4CCS(=O)(=O)CC4)cc3)n2n1)C1CC1,,item: pharyngitis,human rheumatoid arthritis patients,"oral, 75 mg once daily, 4 weeks, regardless of relatedness",,treatment-emergent adverse events,0%
COC(=O)C1CCN(C(=O)c2ccc(N(Cc3ccccc3)Cc3cnc4nc(N)nc(N)c4n3)cc2)CC1,THP-1-derived macrophages,MTT,,,,CC50,12.5 to 25 µM
O=C(Nc1ccc(C2CCCCC2)cc1)[C@H]1CC1(F)F,,liver microsome stability,rat liver microsomes,1 µM,,hepatic clearance,51 mL/min/kg
